{"data": "Experimental data from different studies", "note": "Each numbered part is a random draw from the data of one study; scales do not carry over between parts.", "UniProt Q92985, sequence (whole entry, unmodified, looked up)": "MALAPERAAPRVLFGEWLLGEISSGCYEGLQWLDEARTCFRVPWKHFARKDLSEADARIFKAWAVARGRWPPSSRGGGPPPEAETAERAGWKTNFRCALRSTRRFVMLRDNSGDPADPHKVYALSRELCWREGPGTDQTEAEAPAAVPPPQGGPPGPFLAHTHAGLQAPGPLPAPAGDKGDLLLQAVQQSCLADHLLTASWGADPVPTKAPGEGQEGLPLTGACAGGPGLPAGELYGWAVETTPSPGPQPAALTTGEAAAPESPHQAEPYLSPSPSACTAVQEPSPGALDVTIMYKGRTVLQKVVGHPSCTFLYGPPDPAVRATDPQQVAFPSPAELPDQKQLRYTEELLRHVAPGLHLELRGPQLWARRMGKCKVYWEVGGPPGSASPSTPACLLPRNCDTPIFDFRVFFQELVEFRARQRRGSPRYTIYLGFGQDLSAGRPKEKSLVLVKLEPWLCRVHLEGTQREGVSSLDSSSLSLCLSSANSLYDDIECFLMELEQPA"}
{"data": "Study 1", "target": "Histone acetyltransferase KAT6A, winged helix 2, GST fusion (KAT6A, Homo sapiens, UniProt Q92794, residues 85-181)", "technique": "protein binding microarray", "molecule type": "double-stranded DNA, one strand shown", "sample": "in vitro", "tested at": "not given", "notes": "8-mer, flanks averaged, mean of 2 arrays, mostly near background", "relative to": "not given", "reading": "higher = stronger binding", "Target sequence (chain)": "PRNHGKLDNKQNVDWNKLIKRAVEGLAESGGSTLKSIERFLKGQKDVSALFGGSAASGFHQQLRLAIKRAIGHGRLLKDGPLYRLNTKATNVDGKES"}
{"Oligonucleotide": "AAATACTA", "E-score": 0.00907}
{"Oligonucleotide": "ATTACAAC", "E-score": -0.101}
{"Oligonucleotide": "AACTTCCT", "E-score": 0.0146}
{"data": "Mixed results"}
{"Substance": "GCCTAGCACTCATATTGCTTTCTCTTACTGTGCTAGGTCTTGATTCGCTTGACGCTGCTG", "target": "Interferon regulatory factor 7, full length, phosphomimetic (IRF7, Homo sapiens, UniProt Q92985, residues 1-503, S471D/S472D/S475D/S476D/S477D/S483D/S484D/S487D)", "assay": "protein-binding microarray", "test system": "double-stranded DNA, one strand shown, in vitro", "setting": "2200 nM top, 60-bp whole probe, together with: salmon DNA 0.4 mg/ml", "how to read": "relative to: random background probes, higher = stronger binding", "quantity": "fitted relative affinity", "value": "2.52 z-score"}
{"Substance": "CAGCGGCG", "target": "Sal-like protein 4, full length isoform B (SALL4, Homo sapiens, UniProt Q9UJQ4-2, residues 1-616)", "assay": "universal PBM", "test system": "double-stranded DNA, one strand shown, in vitro", "setting": "not given, 8-mer, flanks averaged, mean of replicates", "how to read": "higher = stronger binding", "quantity": "E-score", "value": -0.161}
{"Substance": "PhoQ, residues 284 288 289 292 302 303 ASTSDA", "target": "PhoP, residues 12 14 15 18 19 GQAIL (Escherichia coli, UniProt P23836)", "assay": "Sort-seq, measured: YFP reporter", "test system": "E. coli", "setting": "PhoQ-PhoP variant library, together with: 10 µM Mg2+", "how to read": "relative to: high Mg2+ state, higher = stronger signaling", "quantity": "fold induction", "value": 4.75}
{"Substance": "AATAAGAG", "target": "Sal-like protein 4, full length isoform A (SALL4, Homo sapiens, UniProt Q9UJQ4, residues 1-1053)", "assay": "universal PBM", "test system": "double-stranded DNA, one strand shown, in vitro", "setting": "600 nM, 8-mer, flanks averaged, mean of replicates", "how to read": "higher = stronger binding", "quantity": "E-score", "value": 0.216}
{"Substance": "GCCTAGCACGACGGTTTCCTTCACCTGACGTGCTAGGTCTTGATTCGCTTGACGCTGCTG", "target": "Interferon regulatory factor 5, full length, phosphomimetic (IRF5, Homo sapiens, UniProt Q13568-2, residues 1-514, S451D/S453D/S456D/S462D)", "assay": "protein-binding microarray", "test system": "double-stranded DNA, one strand shown, in vitro", "setting": "940 nM top, 60-bp whole probe, together with: salmon DNA 0.4 mg/ml", "how to read": "relative to: random background probes, higher = stronger binding", "quantity": "fitted relative affinity", "value": "1.6 z-score"}
{"note": "For quick reference, copied from above (study 1):"}
{"Oligonucleotide": "ATTACAAC", "E-score": -0.101}
